Assay results pooled from the literature.
Numbers after ± are the reported error.

COC1CN([C@H]2CC[C@H]([C@@]3(C)Oc4c(Cl)cc(C(=O)NCc5c(SC)cc(C)[nH]c5=O)c(C)c4O3)CC2)C1
log2 fold change (RNA-seq, refers to: CHST2; human, whole blood; dose not given, 24 h; relative to: pretreatment baseline): 1.66

CC(=O)[O-].O.O.O.O.[Mn+2].[O-]c1ccc(Br)cc1C=NCCN1CCOCC1
inhibition (DPPH radical scavenging; 120 µM): 24.8%

CCCCCc1ccc(S(=O)(=O)N2CC2C(=O)OC)cc1 (stereo not shown)
tumour volume (mouse, Lewis lung carcinoma; intraperitoneal, 5 mg/kg, 16 doses, day 15): 589 mm3

O=[N+]([O-])c1cc(Br)cc([N+](=O)[O-])c1NS(=O)(=O)c1ccc(Br)cc1
log2 fold change (RNA-seq, refers to: AT1G02930; Arabidopsis thaliana Col seedlings; dose not given; relative to: DMSO): 2.42

CCC(=O)N[C@@H](C)C(=O)OCC(=O)N[C@@H](C)C(=O)O
chain scission rate constant (water; pH 4, 25 °C): 0.0004 h⁻¹

COC1OC(C)C(OC2OC(C)C(OS(=O)(=O)O)C(OS(=O)(=O)O)C2OS(=O)(=O)O)C(OS(=O)(=O)O)C1OS(=O)(=O)O (stereo not shown)
APTT prolongation (human plasma; 128 µg/mL; relative to: control): 1.4 fold

Oc1cccc(C2NCCc3cc(O)c(O)cc32)c1 (stereo not shown)
Fe2+ chelation (ferrozine; cell-free; 100 µM, DMSO solvent): 91.3 ± 1.19%

Nc1ncc(-c2cc(-c3cnn(CC(F)(F)F)c3)ncc2F)nc1C(=O)NC1CNCC(F)C1 (stereo not shown)
remaining binding (MKNK1; KINOMEscan; 1 µM; relative to: DMSO control): 26%

Cc1ncsc1-c1ccc(C(C)NC(=O)C2CC(O)CN2C(=O)C(NC(=O)CCCCCCCCCCN2CCCC(Nc3ncc(Cl)c(Nc4ccccc4S(=O)(=O)C(C)C)n3)C2)C(C)(C)C)cc1 (stereo not shown)
log2 fold change (22Rv1; RNA-seq, refers to: SLC33A1 mRNA; concentration not given; relative to: DMSO): -1.41

CC(C)(C)NCC(SS(=O)(=O)O)c1ccccc1 (stereo not shown)
spleen weight (Swiss Webster mice, Schistosoma mansoni-infected; 400 mg/kg single dose on day 42 post-infection, perfusion day 56 post-infection): 0.72 g

C=CC(=O)Nc1cccc(Cn2ncc3cnc(Nc4cnn(CCOC)c4)nc32)c1
percent of control (FLT1 human; binding, KINOMEscan; 100 nM; lower = stronger binding): 29%

CNS(=O)(=O)Nc1nccc(Cc2c(C)c3ccc(Oc4ncccc4F)cc3oc2=O)c1F
IC50 (Kasumi 1; cell viability; 7 days): 54.8 nM

COc1cc(O)ccc1CCC(c1ccc(O)cc1)c1cc2c(c(C)c1O)OC(c1ccc(O)cc1)CC2 (mixture of isomers)
amount (refers to: 14-HDHA; human whole blood; 3 µM, together with: Escherichia coli): 9080 ± 3100 pg/mL blood

CN1CCCNC(=O)c2cccc(c2)C(=O)NCCCN(C)CCCNc2cccc3c2C(=O)c2cccc(c2C3=O)NCCC1
log2 fold change (SAS; RNA-Seq, refers to: SLC9A1 mRNA; 1 µM, 6 h; relative to: untreated cells): -0.962

COC1OC(C)C(OC2OC(C)C(OS(=O)(=O)O)C(OC3OC(C)C(OC4OC(C)C(OS(=O)(=O)O)C(OC5OC(C)C(OC6OC(C)C(OS(=O)(=O)O)C(OC7OC(C)C(OC8OC(C)C(OS(=O)(=O)O)C(OS(=O)(=O)O)C8O)C(OS(=O)(=O)O)C7O)C6O)C(OS(=O)(=O)O)C5O)C4O)C(OS(=O)(=O)O)C3O)C2O)C(OS(=O)(=O)O)C1O (stereo not shown)
APTT prolongation (human plasma; 128 µg/mL; relative to: control): 1.3 fold

COCCOCCOCCNC(=O)Cc1cc(CC(=O)N[C@H]2C[C@H]3C(=O)Nc4cc(OCCOCCOCCOC)cc(n4)C(=O)N4CCC[C@H]4C(=O)Nc4cc(OCCOCCOCCOC)cc(n4)C(=O)N4CCC[C@H]4C(=O)Nc4cc(OCCOCCOCCOC)cc(n4)C(=O)N3C2)cc(CC(=O)N[C@H]2C[C@H]3C(=O)Nc4cc(OCCOCCOCCOC)cc(n4)C(=O)N4CCC[C@H]4C(=O)Nc4cc(OCCOCCOCCOC)cc(n4)C(=O)N4CCC[C@H]4C(=O)Nc4cc(OCCOCCOCCOC)cc(n4)C(=O)N3C2)c1
ΔG (anion binding, ITC; phosphate buffer 35 mM; pH 7.4, 298 K, together with: sodium sulfate): -17.8 ± 0.1 kJ mol^–1

Repeated from above:
O=[N+]([O-])c1cc(Br)cc([N+](=O)[O-])c1NS(=O)(=O)c1ccc(Br)cc1
log2 fold change (RNA-seq, refers to: AT1G02930; Arabidopsis thaliana Col seedlings; dose not given; relative to: DMSO): 2.42

CCC(=O)N[C@@H](C)C(=O)OCC(=O)N[C@@H](C)C(=O)O
chain scission rate constant (water; pH 4, 25 °C): 0.0004 h⁻¹
